Measurements from different studies.
± gives the spread as reported.

SMILES	assay	system	setting	endpoint	result
Clc1ccc(-c2ccccc2)cc1	–	Sprague-Dawley rats, female, serum	inhalation, 23 µg/rat, 1 h after exposure	alkaline phosphatase	179 ± 8 U/L
C[C@@H](NC(=O)N1C(=O)[C@H](Cc2ccnc(N)c2)[C@H]1C(=O)O)C1CCCCC1	–	healthy adult Chinese volunteers	continuous intravenous infusion, 0.6 mg/kg/h, 5-day infusion, CTCAE 5.0 grading	drug-related abnormal liver function	12.5%
N=C(N)NCCNC(=O)C1(Nc2ccccc2)CCN(Cc2ccccc2)CC1	–	male Sprague-Dawley rats	oral, 50 mg/kg	elimination rate constant	0.00128 ± 0.000194 s⁻¹
C[C@]1(O)C[C@@](N)(c2ccc(-c3nc4n(c3-c3ccccc3)COc3ccncc3-4)cc2)C1	–	human, advanced or metastatic solid tumours	20 mg once daily, phase I dose escalation	patients with Rash TEAE	66.7%
CO[C@H]1C[C@@H]2CC[C@@H](C)[C@@](O)(O2)C(=O)C(=O)N2CCCC[C@H]2C(=O)O[C@H]([C@H](C)C[C@@H]2CC[C@@H](OC(=O)NCCOCCOCCOCCOCCOCCOCCOCCOCCC(=O)N3CCc4cc(Cn5nc(-c6ccc7oc(N)nc7c6)c6c(N)ncnc65)ccc4C3)[C@H](OC)C2)C[C@@H](O)[C@H](C)/C=C(\C)[C@@H](O)[C@@H](OC)C(=O)[C@H](C)C[C@H](C)/C=C/C=C/C=C/1C	–	patients with advanced solid tumours	intravenous, 6 mg weekly, grade 3 or higher	decreased appetite incidence	0%
O=c1nc(NO)ccn1[C@@H]1O[C@H](CO)[C@@H](O)[C@H]1O	–	rat amniotic fluid dialysate	25 ng/mL, low concentration, three cycles, with: molnupiravir 5 ng/mL	freeze-thaw stability	104 ± 2.3%
COc1cc2c(Oc3ccc4[nH]c(C)cc4c3F)ccnc2cc1OCC1(N)CC1	refers to: grade 1 or 2 hand-foot syndrome	paediatric high-risk refractory sarcoma	8 mg	incidence of adverse event	13.3%
CN1C(=O)[C@@H](NC(=O)c2nnc(Cc3ccccc3)[nH]2)COc2cccnc21	phase I multiple ascending dose	human, male and female	oral, 100 mg, 14 days	participants with TEAE leading to death	0%
C[C@]1(CO)Cc2ncn(-c3ccc(C#N)c(Cl)c3)c2C(=O)O1	–	human, plasma	5 mg single dose, geometric mean	Cmax	201 nM
NC(=O)c1cccc(-c2cc(OC(=O)NC3CCCCC3)ccc2O)c1	–	mouse	intravenous, 10 mg/kg	clearance	33.3 mL/min/kg
COc1ccc(-c2c(-c3ccc(C#N)c(F)c3)nc(N3CCC(N)CC3)n(C)c2=O)cc1F	refers to: tumor pain	human patients	oral, 60 mg, dose expansion	serious adverse event incidence	0%
Oc1c(Cl)cc2c(c1Cl)Oc1cc(Cl)c(Cl)cc1O2	ultrafiltration	cow milk whey	100 nM nominal in whole milk	dose fraction in permeate	17.1%
CCc1ccc(CC/C=C/c2ccc3c(c2)C(=O)CC3)cc1	–	Sprague-Dawley rat, female	oral, 450 mg/kg/day, 14 days	Basophil percentage	0.33%

For quick reference, copied from above:
SMILES	assay	system	setting	endpoint	result
COc1ccc(-c2c(-c3ccc(C#N)c(F)c3)nc(N3CCC(N)CC3)n(C)c2=O)cc1F	refers to: tumor pain	human patients	oral, 60 mg, dose expansion	serious adverse event incidence	0%
Oc1c(Cl)cc2c(c1Cl)Oc1cc(Cl)c(Cl)cc1O2	ultrafiltration	cow milk whey	100 nM nominal in whole milk	dose fraction in permeate	17.1%
